# Measurements collected from several papers.
# A part holds a random share of what one study measured.

# Series 1 — action: inhibitor; concentration: 20 µM
# Target: Replicase polyprotein 1ab, nsp13 helicase (rep, Severe acute respiratory syndrome coronavirus 2, UniProt P0DTD1)
Structure (SMILES),inhibition
CCc1ccc2c(-c3cccc(Cl)c3)nc(=O)n(CC)c2n1,-1.06%
CCCN1CCC[C@@H]2Cc3nc(N)ncc3C[C@H]21,1.82%
O=Nc1c(-c2c(O)[nH]c3ccccc23)[nH]c2ccccc12,4.6%
COc1cccc(OC)c1C(=O)N[C@@H]1C(=O)N2[C@@H]1SC(C)(C)[C@@H]2C(=O)O,4.46%
CC(C)(C)NCc1cc(Nc2ccnc3cc(Cl)ccc23)c2c(c1O)CCCC2,1.56%
Cc1c(F)cc(C(=O)NC2CC2)cc1-c1c(F)cn2c(C(C)(C)C)nnc2c1F,0.71%
Nc1nccc(/C=C/c2ccccc2)n1,-1.98%
CCOc1ccc(Nc2nc(-c3c(C)nc4ccccn34)cs2)cc1,82.6%
O=C(O)CCc1nc2ccccc2[nH]1,5.22%
CC(C)CN(C[C@@H](O)[C@H](Cc1ccccc1)NC(=O)O[C@H]1CO[C@H]2OCC[C@H]21)S(=O)(=O)c1ccc(N)cc1,6.2%
CC1(C)Cc2c(-c3ccccc3)c(-c3ccc(Cl)cc3)c(CC(=O)O)n2C1,8.83%
C#CCOC(=O)C1=CCCN(C)C1,5.97%
C[C@H]1C[C@@H]2[C@H]([C@@H](O)C[C@@]3(C)[C@H]2CC[C@]3(O)C(=O)CO)[C@@]2(C)C=CC(=O)C=C12,-1.12%
CC(C(=O)O)c1cccc(C(=O)c2ccccc2)c1 (centres unmarked),1%
N#Cc1c(N)nc(SCC(N)=O)c(C#N)c1-c1ccc(OCC2CC2)cc1,-0.06%
Cc1cccc(C)c1NC(=O)c1ccc(N)cc1,2.1%
O=C(c1cn(Cc2cncn2Cc2ccc(Br)cc2)cc1-c1cccc2ccccc12)N1CCOCC1,6.99%
COc1ccc2c(c1)N(C[C@H](C)CN(C)C)c1ccccc1S2,8.25%
CC[N+](CC)(CC)CCOc1cccc(OCC[N+](CC)(CC)CC)c1OCC[N+](CC)(CC)CC,5.14%
COc1cc(C(=O)c2c(C)oc3c(O)c(OC)ccc23)cc(OC)c1OC,9.77%
CCN(CC)CCCCN1c2ccccc2Oc2ccc(Cl)cc21,27.2%
COc1cc2c(cc1OC)-c1c(C)c3ccc(OC)c(OC)c3c[n+]1CC2,6.29%
[N-]=[N+]=N[C@]1(CO)O[C@@H](n2ccc(N)nc2=O)[C@H](O)[C@@H]1O,8.07%
CCCCCCCCCCCC(=O)N(CCO)CCO,-0.4%
C=CCc1ccc(O)c(-c2cc(CC=C)ccc2O)c1,4.91%

# Series 2 — technique: RNA Bind-n-Seq; molecule type: RNA; matrix: in vitro; concentration: 200 nM; notes: whole 134-nt RNA, ends assumed; with: 150 mM KCl; relative to: input library; direction: higher = stronger binding
# Target: Ras GTPase-activating protein-binding protein 1, full length (G3BP1, Homo sapiens, UniProt Q13283)
# UniProt Q13283, sequence (whole entry, looked up): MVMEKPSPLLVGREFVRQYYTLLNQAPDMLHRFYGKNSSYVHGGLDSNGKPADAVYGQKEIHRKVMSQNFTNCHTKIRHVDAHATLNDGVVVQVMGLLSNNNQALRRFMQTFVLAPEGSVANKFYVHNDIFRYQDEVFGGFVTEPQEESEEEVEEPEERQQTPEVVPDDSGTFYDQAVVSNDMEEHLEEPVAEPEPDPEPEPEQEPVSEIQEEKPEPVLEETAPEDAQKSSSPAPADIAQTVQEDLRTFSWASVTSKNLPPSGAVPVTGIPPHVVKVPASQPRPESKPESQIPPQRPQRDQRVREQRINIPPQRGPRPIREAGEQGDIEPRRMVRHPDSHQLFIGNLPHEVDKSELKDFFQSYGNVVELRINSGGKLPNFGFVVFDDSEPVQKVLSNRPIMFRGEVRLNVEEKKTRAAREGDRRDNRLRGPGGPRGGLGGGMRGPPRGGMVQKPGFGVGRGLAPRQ
# Shared flanks, not repeated: GGGAGUUCUACAGUCCGACGAUC … UGGAAUUCUCGGGUGUCAAGG
Oligonucleotide,log2 enrichment
CCUCAAGUCCUGUGCUACACAUCGUAUGUACCGAAUCGGCGGGGCGGGCGGGAAAGUAUUAUGUUACGCCGUUCGGAUCUGCACUUCCAG,1.24
GCAGGAAGUAAAAACAAAUGGAAAUGCUUCGGAUAGUGGCAGGGGUGGAGGUUGCUAAGGAAAGGGUGGGAUGGGAGUGGGUAAAGAGUU,0.826
ACCAUGCAGGUGGGCAUCUUUGGGAAGUGGGGCAAGGGGGGGAUAGGGAGGGGGGUAAUACUUUGGGAACAGGUGGUCCCAGGUCGUUUC,1.32
UAACUUUAGAGGAGGAGCUGAUGGAUAUGGCAGUGGACGUGGAUUUGGGGAUGGCUAUAAUGGGUAUGGAGGAGGACCUGGAGGUGGCAA,0.508
UGCCUGUAUGGAGUGGAAUGAAUGUUGCUGGUGUCUCUCUGAAGACUCUGCACCCAGAUUUAGGGACUGAUAAAGAUAAGGAACAGUGGA,-0.482
UAACUUUAGAGGAGGAUCUGAUGGAUAUGGCAGUGGACGUGUAUUUGGGGAUGGCUAUAAUGGGUAUGGAGGAGGACCUGGAGGUGGCAA,0.198
AAGUCCUGUGCUACACAUCGUAUGUACCGAAUCGGGUUUUUUUGGGAAAGGGUGGGAAAGUAUUAUGUUACGCCGUUCGGAUCUGCACUU,0.11
GCAGGAAGUAAAAACAAAUGGAAAUGCUUCGGAUAGUGGCAGGGGUGGGGGUUGCUAAGGAAAGUGUGGGAUGGGAGUGGGUAAAGAGUU,0.863

# Series 3 — cell line: HEK-293T; read-out: pseudovirus infection; technique: FDA-approved drug library screen; organism: VSV pseudotyped with SARS-CoV-2 spike; concentration: 10 µM; time: 16 h; relative to: vehicle-treated
Structure (SMILES),GFP-positive cells [%]
O=C(O)c1ccccc1O,94.8
CCN[C@H]1CN(CCCOC)S(=O)(=O)c2sc(S(N)(=O)=O)cc21,98.7
CC#CCn1c(N2CCC[C@@H](N)C2)nc2c1c(=O)n(Cc1nc(C)c3ccccc3n1)c(=O)n2C,60.2

# Series 4 — technique: RNA Bind-n-Seq; molecule type: RNA; matrix: in vitro; concentration: 100 nM; relative to: input RNA pool; direction: higher = stronger binding
# Target: RING finger protein unkempt homolog, zinc fingers 1-6, SBP tag (UNK, Homo sapiens, UniProt Q9C0B0, residues 30-357)
# UniProt Q9C0B0, sequence (30-357, looked up): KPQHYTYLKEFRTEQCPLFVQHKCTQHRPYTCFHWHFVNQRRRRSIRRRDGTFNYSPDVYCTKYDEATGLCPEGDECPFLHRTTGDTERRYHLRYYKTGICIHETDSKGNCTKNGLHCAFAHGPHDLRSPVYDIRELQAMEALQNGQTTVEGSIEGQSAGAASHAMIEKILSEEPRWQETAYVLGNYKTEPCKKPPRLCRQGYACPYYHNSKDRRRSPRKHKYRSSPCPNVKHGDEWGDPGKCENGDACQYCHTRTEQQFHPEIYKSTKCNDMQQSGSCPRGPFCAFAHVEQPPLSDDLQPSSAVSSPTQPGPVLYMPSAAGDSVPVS
# Notes: RNA with constant flanks, vertebrate orthologous sites, ends assumed
# Shared flanks, not repeated: GGGAGUUCUACAGUCCGACGAUC … CAACAGAGGAUUGAGCAUCA
Oligonucleotide,bound/input enrichment [ratio]
UCCUCAACUUGUUCUAGCUUGUGAUCCUUCAAAUUUGGAUCAUGCAUUAGUGCUAGAUUCUAGAAAUUUUCUCUUCUCUUUCGACUGAUCAGAGAAACAUGCAUUAAAAACAAAUACAGG,1.36
CUGAAGCUUUGUGUUUGGCUGCACCUGCAUAAGCUGCUACAAAUAGAAUAAAGAAUUUCGUAGCCUGUAUCUAUCAUUUAGAUGCAUGGAAAAAAAUGGGCUUUGCACACAAUGGGUUUG,1.59
GUCCCGGCAGCGCCAGCGAGGGUAGCCGCCCUUCUCACACUGCUCUGUCUUUAUUUAUUUUCCUCAGGACUGACCCUGAGGCUCCAGCUUUUGUGGUUCAUCUCGUAUUUAUUUUAUCUU,1.35
CUCUAUGGGCCUCGCAGAGUUGAAAUAAUGGAAGAGGAAAGUGAACAGUAAUCUUCAUUUUAGUAUUUAUGCUUAGGUGUGAAAUAAAUGUUAUUUGUUGAUCACUUCUAUAAUCCACAG,0.439
AUUUACACUAAUACUGAAGUUGCAGUUAAAAGGAUAUCCAAGGUGAUGAUAAAGUGUGUGUUGGUAGUUACUAAAAGAACUUUAGCUGUUACUGCCUUGUAUUUCUAUCCCUUGUUUCAG,0.277
UUUCUGCCUUUCUCCCCCUUACUUCUUACUUUAAAACCCUUCCCCCUCUUUUUUUUAAAGGCAUAGGUAGUAACAUUAGAAAAAAGACAUUUUUGGGCAAAGCAUGUGAAUAAACAUUGA,1.32
UAUUUAGGACAACUGGAAGAAUAGCAUAUGAAAUCAACAAGUAGGAAUAGUCAAGGAGAGAAGUUACAAAUAGAGGUAGCCAAGUGACUAAAAGGAGGGAGAUGAAGGUCAUUGAAAUUC,0.97
CAGGGAUGGCCCCAACCCCACCUCUGUCCAUUCUGUAAACUACAACCUGUAAAUAACGUUUAGCAUUCCUAUUGUAACAAAAUUAAUUUUUAUGAAAUAAAUUAUAUUUCCUAGUCUAAU,1.01

# Series 5 — read-out: enzyme activity; action: inhibitor; concentration: 20 µM; notes: hit confirmation, with DTT
# Target: Replicase polyprotein 1ab, main protease (rep, Severe acute respiratory syndrome coronavirus 2, UniProt P0DTD1)
SMILES,inhibition
N=C(N)NN=C1C=CC(=NNC(N)=S)C=C1,1.8%
CCN(CC)C(=S)S,60.6%
COc1cc(-c2ccc(/N=N/c3ccc4c(S(=O)(=O)O)cc(S(=O)(=O)O)c(N)c4c3O)c(OC)c2)ccc1/N=N/c1ccc2c(S(=O)(=O)O)cc(S(=O)(=O)O)c(N)c2c1O,100%
CCCCCCCCCCCCCCCC[n+]1ccn(Cc2ccccc2)c1C,36.3%

# Series 6 — technique: protein-binding microarray; molecule type: double-stranded DNA, one strand shown; matrix: in vitro; concentration: 250 nM; notes: 60-bp whole probe; with: salmon DNA 0.4 mg/ml; relative to: random background probes; direction: higher = stronger binding; shared flanks, not repeated: GCCTAGCAC … GTCTTGATTCGCTTGACGCTGCTG
# Target: Interferon regulatory factor 5, full length, phosphomimetic (IRF5, Homo sapiens, UniProt Q13568-2, residues 1-514, K96S/S451D/S453D/S456D/S462D)
Oligonucleotide,log fluorescence
TTAGATATCGTGTATCGATTAGTGCTA,3.92 z-score
GACGATATCCGACTGGAGACGTGCTAG,0.0208 z-score
GACGGTTTCAGTTTCGAGACGTGCTAG,7.89 z-score
TTAGATTTCAGTTCCGATTCGTGCTAG,2.87 z-score
GACGGTAGCCTTCTCCTGACGTGCTAG,-0.444 z-score
GTCGGTTTCGGTATCGGGACGTGCTAG,10.6 z-score
GACGGACTGTGGACTGGGGACGTGCTA,-0.675 z-score
GACGATATCAGTTTCGAAACGTGCTAG,7.6 z-score

# For quick reference, copied from above (series 4):
Oligonucleotide,bound/input enrichment [ratio]
GUCCCGGCAGCGCCAGCGAGGGUAGCCGCCCUUCUCACACUGCUCUGUCUUUAUUUAUUUUCCUCAGGACUGACCCUGAGGCUCCAGCUUUUGUGGUUCAUCUCGUAUUUAUUUUAUCUU,1.35
CUCUAUGGGCCUCGCAGAGUUGAAAUAAUGGAAGAGGAAAGUGAACAGUAAUCUUCAUUUUAGUAUUUAUGCUUAGGUGUGAAAUAAAUGUUAUUUGUUGAUCACUUCUAUAAUCCACAG,0.439
AUUUACACUAAUACUGAAGUUGCAGUUAAAAGGAUAUCCAAGGUGAUGAUAAAGUGUGUGUUGGUAGUUACUAAAAGAACUUUAGCUGUUACUGCCUUGUAUUUCUAUCCCUUGUUUCAG,0.277
UUUCUGCCUUUCUCCCCCUUACUUCUUACUUUAAAACCCUUCCCCCUCUUUUUUUUAAAGGCAUAGGUAGUAACAUUAGAAAAAAGACAUUUUUGGGCAAAGCAUGUGAAUAAACAUUGA,1.32
UAUUUAGGACAACUGGAAGAAUAGCAUAUGAAAUCAACAAGUAGGAAUAGUCAAGGAGAGAAGUUACAAAUAGAGGUAGCCAAGUGACUAAAAGGAGGGAGAUGAAGGUCAUUGAAAUUC,0.97
